Experimental data of several laboratories.
Lines come from different studies, so protocols differ. Numbers after ± are the reported error.
GRM4: Metabotropic glutamate receptor 4 (GRM4, Homo sapiens, UniProt Q14833)
GLP1R: Glucagon-like peptide 1 receptor (GLP1R, Homo sapiens, UniProt P43220)
LDHA: L-lactate dehydrogenase A chain (LDHA, Homo sapiens, UniProt P00338)
KCNT1: Potassium channel subfamily T member 1 (KCNT1, Homo sapiens, UniProt Q5JUK3)
FPR1: fMet-Leu-Phe receptor (FPR1, Homo sapiens, UniProt P21462)
FPR2: N-formyl peptide receptor 2 (FPR2, Homo sapiens, UniProt P25090)
ALDH1A1: Aldehyde dehydrogenase 1A1 (ALDH1A1, Homo sapiens, UniProt P00352)
Melanocortin receptor 4: Melanocortin receptor 4 (Mus musculus, UniProt P56450)
Lysophospholipase-like protein 1: Lysophospholipase-like protein 1 (Mus musculus, UniProt Q3UFF7)
Taar1: Trace amine-associated receptor 1 (Taar1, Mus musculus, UniProt Q923Y8)

Chains of the proteins cited; added tags and fusions are not shown. Lines headed by an entry give the natural chain unless they say otherwise; changes in a name come on top. Residues count along the entry.
UniProt Q14833, 33-912 limits assumed: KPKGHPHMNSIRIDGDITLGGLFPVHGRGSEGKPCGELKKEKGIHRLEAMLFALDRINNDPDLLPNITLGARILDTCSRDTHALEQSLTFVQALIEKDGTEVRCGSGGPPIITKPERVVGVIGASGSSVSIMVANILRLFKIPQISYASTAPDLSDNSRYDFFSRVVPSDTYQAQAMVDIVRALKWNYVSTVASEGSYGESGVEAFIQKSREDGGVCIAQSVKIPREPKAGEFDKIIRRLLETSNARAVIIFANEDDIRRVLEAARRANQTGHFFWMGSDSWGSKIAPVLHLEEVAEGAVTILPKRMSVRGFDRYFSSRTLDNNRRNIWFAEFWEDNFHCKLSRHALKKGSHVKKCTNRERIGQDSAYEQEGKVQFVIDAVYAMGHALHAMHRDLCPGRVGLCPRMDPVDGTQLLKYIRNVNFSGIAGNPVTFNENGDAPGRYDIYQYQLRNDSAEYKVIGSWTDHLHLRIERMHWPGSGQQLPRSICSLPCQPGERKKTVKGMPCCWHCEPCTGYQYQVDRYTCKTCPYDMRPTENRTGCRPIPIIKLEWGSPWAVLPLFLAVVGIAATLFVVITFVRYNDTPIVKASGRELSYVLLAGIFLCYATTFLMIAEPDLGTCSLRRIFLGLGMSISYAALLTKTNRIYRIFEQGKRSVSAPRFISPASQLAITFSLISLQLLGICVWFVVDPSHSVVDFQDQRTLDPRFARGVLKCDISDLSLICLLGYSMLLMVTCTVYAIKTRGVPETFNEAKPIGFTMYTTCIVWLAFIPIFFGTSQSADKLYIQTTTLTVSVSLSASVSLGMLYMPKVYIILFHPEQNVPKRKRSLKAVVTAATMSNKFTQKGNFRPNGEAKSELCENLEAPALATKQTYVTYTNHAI
UniProt P43220, whole entry, looked up: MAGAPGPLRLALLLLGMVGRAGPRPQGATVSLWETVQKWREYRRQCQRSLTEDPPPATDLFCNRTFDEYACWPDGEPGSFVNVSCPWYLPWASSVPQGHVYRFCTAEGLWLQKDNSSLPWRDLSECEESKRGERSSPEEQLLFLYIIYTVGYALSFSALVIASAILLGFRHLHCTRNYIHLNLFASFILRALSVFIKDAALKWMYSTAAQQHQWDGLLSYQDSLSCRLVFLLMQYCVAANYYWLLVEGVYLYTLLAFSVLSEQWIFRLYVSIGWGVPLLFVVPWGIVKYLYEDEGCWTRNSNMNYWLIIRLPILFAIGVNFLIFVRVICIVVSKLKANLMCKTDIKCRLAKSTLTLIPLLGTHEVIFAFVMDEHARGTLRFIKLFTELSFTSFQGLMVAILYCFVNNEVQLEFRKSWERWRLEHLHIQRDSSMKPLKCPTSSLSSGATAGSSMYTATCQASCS
UniProt P43220, 24-463 limits assumed: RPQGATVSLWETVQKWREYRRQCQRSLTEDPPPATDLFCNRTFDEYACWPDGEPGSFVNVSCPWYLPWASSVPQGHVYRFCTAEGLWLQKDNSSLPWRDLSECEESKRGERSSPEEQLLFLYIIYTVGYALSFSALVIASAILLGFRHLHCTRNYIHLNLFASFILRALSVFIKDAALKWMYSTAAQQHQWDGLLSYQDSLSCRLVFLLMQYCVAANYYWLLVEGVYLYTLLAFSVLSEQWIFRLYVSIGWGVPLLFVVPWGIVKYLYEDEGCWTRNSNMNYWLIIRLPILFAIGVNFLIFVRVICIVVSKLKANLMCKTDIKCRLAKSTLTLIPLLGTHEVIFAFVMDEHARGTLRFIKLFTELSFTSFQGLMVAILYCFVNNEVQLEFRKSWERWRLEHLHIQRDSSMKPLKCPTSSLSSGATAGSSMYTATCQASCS
UniProt Q5JUK3, whole entry: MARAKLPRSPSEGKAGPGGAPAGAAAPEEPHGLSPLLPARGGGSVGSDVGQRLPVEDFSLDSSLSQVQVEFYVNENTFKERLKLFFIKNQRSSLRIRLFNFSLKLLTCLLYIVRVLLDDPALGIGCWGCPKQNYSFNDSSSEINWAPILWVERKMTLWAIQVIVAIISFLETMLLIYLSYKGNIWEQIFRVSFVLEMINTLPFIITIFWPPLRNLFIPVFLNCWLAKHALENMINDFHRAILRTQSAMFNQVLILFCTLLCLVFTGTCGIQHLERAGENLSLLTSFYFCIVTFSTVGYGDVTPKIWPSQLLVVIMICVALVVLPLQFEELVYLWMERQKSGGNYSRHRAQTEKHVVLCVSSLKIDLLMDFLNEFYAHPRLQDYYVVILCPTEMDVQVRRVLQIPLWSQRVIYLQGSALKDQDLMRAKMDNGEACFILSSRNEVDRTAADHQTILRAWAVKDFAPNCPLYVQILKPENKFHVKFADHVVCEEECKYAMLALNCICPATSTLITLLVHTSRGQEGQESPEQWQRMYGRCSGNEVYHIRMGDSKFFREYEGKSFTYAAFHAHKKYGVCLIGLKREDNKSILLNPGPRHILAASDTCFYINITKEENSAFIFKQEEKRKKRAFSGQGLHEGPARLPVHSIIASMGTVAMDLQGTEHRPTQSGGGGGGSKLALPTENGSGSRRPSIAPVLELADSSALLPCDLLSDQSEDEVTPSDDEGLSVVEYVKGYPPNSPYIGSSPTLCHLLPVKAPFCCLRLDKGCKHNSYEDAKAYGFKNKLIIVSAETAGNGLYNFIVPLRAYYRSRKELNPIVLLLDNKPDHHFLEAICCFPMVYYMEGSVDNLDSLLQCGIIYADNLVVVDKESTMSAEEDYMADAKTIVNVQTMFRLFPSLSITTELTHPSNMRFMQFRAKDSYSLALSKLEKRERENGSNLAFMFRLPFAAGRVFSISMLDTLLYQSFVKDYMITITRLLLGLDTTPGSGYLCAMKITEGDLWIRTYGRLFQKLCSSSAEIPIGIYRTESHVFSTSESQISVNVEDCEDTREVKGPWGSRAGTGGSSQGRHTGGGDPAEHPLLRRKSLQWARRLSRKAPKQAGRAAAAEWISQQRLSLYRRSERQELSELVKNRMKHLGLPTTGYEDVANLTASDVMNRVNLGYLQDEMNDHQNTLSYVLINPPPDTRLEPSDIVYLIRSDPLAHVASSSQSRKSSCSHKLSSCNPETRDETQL
UniProt P00352, whole entry: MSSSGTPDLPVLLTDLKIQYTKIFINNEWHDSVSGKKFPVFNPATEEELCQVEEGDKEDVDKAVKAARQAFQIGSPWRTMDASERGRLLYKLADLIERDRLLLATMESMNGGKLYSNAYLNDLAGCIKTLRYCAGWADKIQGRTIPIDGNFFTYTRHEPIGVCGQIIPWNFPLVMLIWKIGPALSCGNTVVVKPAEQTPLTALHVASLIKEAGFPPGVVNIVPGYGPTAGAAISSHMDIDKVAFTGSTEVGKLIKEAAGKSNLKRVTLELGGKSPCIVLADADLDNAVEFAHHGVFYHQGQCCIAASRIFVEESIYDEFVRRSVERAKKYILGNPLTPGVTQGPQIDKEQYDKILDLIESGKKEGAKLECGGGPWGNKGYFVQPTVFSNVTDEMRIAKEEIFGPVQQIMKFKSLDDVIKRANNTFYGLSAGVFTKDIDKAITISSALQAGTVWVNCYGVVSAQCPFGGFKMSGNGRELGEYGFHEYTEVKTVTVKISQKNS
UniProt P56450, whole entry: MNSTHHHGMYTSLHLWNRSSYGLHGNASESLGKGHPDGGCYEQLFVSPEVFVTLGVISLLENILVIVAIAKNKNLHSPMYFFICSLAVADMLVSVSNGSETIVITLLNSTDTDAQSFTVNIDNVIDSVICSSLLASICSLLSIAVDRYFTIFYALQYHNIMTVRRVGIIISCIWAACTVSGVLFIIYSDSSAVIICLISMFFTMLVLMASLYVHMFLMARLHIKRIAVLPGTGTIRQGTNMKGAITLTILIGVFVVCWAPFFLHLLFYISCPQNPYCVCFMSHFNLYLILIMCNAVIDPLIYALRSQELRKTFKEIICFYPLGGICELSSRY
UniProt Q3UFF7, whole entry: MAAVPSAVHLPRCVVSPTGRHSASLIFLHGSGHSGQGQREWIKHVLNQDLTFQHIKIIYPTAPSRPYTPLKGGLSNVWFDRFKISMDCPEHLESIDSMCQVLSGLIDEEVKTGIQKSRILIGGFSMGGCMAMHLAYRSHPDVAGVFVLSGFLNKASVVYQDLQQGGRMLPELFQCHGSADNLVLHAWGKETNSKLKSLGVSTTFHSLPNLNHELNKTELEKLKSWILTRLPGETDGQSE
UniProt Q01727, whole entry: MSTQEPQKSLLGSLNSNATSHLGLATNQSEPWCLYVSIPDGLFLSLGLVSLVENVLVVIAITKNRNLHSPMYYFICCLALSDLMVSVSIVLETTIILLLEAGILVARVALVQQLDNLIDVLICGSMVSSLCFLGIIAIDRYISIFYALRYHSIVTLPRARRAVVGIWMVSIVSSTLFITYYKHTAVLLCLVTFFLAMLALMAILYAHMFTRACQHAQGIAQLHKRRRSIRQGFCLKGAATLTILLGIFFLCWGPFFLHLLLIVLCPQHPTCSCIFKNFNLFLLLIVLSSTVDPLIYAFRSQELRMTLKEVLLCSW
UniProt Q5VWZ2, whole entry: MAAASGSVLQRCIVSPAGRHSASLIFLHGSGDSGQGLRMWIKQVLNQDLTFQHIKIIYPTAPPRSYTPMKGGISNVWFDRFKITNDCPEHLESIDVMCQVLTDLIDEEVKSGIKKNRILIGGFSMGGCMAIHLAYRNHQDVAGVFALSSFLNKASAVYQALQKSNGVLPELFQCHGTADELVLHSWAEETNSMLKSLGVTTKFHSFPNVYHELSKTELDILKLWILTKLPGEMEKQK
UniProt Q923Y9, whole entry: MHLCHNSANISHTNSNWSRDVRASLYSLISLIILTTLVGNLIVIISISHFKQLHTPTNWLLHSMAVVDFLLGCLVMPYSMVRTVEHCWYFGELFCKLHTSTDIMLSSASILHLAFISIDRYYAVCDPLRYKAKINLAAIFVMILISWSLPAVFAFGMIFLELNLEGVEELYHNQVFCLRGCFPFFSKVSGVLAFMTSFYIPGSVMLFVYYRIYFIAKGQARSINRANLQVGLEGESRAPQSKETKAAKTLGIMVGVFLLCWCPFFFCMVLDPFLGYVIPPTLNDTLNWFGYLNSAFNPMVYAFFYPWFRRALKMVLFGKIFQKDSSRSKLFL
UniProt Q99685, whole entry: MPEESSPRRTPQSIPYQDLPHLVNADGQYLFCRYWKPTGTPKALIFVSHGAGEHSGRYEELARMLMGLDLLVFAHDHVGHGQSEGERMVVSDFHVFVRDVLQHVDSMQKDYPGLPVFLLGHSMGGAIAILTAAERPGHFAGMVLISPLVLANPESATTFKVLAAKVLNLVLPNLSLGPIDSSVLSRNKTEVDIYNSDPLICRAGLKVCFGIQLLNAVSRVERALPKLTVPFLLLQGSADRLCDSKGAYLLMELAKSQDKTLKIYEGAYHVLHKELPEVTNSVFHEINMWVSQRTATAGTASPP
UniProt Q13255, 19-1194 limits assumed: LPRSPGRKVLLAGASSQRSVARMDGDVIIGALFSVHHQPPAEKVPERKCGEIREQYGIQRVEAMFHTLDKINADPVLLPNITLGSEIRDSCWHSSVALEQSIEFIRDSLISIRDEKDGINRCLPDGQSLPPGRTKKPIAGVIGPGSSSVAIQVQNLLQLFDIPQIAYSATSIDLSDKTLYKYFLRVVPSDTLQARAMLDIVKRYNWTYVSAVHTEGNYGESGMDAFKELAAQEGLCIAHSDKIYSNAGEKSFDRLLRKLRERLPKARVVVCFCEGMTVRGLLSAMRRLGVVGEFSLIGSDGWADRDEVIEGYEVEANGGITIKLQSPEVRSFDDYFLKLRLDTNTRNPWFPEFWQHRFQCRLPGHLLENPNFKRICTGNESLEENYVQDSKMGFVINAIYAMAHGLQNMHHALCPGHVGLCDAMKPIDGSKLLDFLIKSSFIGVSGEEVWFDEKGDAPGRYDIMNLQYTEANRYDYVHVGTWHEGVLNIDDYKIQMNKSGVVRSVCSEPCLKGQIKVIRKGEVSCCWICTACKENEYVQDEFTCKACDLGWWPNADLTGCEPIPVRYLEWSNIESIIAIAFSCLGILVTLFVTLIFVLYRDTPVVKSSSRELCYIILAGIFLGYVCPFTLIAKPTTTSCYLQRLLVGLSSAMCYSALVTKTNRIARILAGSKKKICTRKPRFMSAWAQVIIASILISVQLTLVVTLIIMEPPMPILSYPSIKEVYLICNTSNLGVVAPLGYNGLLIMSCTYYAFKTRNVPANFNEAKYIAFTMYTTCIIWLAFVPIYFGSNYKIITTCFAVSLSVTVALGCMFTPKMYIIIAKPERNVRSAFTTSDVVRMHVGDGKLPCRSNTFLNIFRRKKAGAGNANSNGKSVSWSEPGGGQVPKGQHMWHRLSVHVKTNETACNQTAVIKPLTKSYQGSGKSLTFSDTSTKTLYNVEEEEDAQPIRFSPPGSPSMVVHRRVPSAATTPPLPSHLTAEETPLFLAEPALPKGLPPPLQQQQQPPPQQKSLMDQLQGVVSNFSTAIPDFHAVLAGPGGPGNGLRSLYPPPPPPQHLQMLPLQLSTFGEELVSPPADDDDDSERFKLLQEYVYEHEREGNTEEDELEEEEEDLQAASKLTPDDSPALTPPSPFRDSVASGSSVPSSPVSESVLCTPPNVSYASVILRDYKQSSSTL

The EC50 of `CNc1nc(C#Cc2ccc(Cl)s2)nc2c1ncn2[C@H]1[C@H](O)[C@H](O)[C@]2(C#N)C[C@H]12` is reported as 2200 nM (Sodium-dependent dopamine transporter (SLC6A3, Homo sapiens, UniProt Q01959)).
`COc1cc(Nc2ncc3c(n2)-c2ccc(Cl)cc2C(c2c(F)cccc2OC)=NC3)ccc1C(=O)NCCOCCOCCOCCOCC(=O)N[C@H](C(=O)N1C[C@H](O)C[C@H]1C(=O)NCc1ccc(-c2scnc2C)cc1)C(C)(C)C` has an EC50 of 2660 ± 247 nM (Aurora kinase B (AURKB, Homo sapiens, UniProt Q96GD4); target engagement, NanoBRET; HEK293; 2 h).
For `O=C(NN=Cc1ccccc1)c1ccc(Cl)cc1`, the EC50 was 1710 nM (Steroid hormone receptor ERR1 (ESRRA, Homo sapiens, UniProt P11474); reporter gene, agonist, ERRE luciferase reporter; HEK293 transfected).
The EC50 of `COc1ccc(NC(=O)CN2CCCN(S(=O)(=O)Cc3ccc(Cl)cc3Cl)CC2)c(OC)c1` is reported as 2800 ± 10 nM (GRM4; calcium mobilization, positive allosteric modulator; CHO cells with Gqi5; together with: glutamate EC20).
`Cc1c(=O)n(C)c(Nc2ccc(I)cc2F)c2c(=O)n(C3CC3)c(=O)n(-c3cccc(NC(=O)CCOCCOCCNC(=O)CCC4=[N+]5C(=Cc6ccc(-c7ccc[nH]7)n6[B-]5(F)F)C=C4)c3)c12` gave an EC50 of 6 nM (Dual specificity mitogen-activated protein kinase kinase 1 (MAP2K1, Homo sapiens, UniProt Q02750); binding, NanoBRET; HEK-293T; MEK1-NanoLuc).
The EC50 of `Cc1[nH]c2cc(Cl)cc(Cl)c2c1CCn1cc(CCCCO)nn1` is reported as 714 ± 152 nM (GLP1R; cAMP accumulation, positive allosteric modulator, HTRF; CHO-K1 expressing GLP1R; purified compound, together with: GLP-1(9-36) at EC20).
`CCS(=O)(=O)c1nc(-c2ccc(F)cc2)cc(C(F)F)n1` gave an EC50 of 42000 ± 5800 nM (GLP1R; cAMP accumulation, agonist; HEK293T overexpressing target; no peptide ligand).
The EC50 of `NS(=O)(=O)c1ccc(Cc2c(-c3ccc(F)c(/C=C/C4CCCC4)c3)nn(-c3nc(C(=O)O)cs3)c2CC2CC2)cc1F` is reported as 20 nM (LDHA; thermal stabilisation, CETSA; HEK293; 3.5 min, 71 °C).
`CC(C)(Cn1cc(CCC(=O)Nc2ccccc2)nn1)c1c[nH]c2ccccc12` gave an EC50 of 970 ± 190 nM (GLP1R; cAMP accumulation, positive allosteric modulator, HTRF; CHO-K1 expressing GLP1R; purified compound, together with: GLP-1(9-36) at EC20).
`O=S(=O)(c1cccc(C(F)(F)F)c1)N1CCC(Cn2cnc3cc(C(F)(F)F)ccc32)CC1` has an EC50 of > 10000 nM (KCNT1; thallium flux, activator; HEK293 expressing KCNT1).
For `CCCC(O)c1cn(CCc2c(C)[nH]c3cc(Cl)cc(Cl)c23)nn1` (centres unmarked), the EC50 was 546 nM (GLP1R; cAMP accumulation, positive allosteric modulator, HTRF; CHO-K1 expressing GLP1R; crude reaction product, together with: GLP-1(9-36) at EC20).
`COc1ccc(NC(=O)CN2CCCN(S(=O)(=O)c3cccnc3)CC2)c(OC)c1` gave an EC50 of > 10000 nM (GRM4; calcium mobilization, positive allosteric modulator; CHO cells with Gqi5; together with: glutamate EC20).
`Cc1nc(-c2ccc(OCC(C)C)c(C#N)c2)sc1C(N)=O` gave an EC50 of 1200 nM (Metabotropic glutamate receptor 2 (Grm2, Rattus norvegicus, UniProt P31421); thallium flux, positive allosteric modulator; HEK293 GIRK; together with: glutamate EC20).
The EC50 of `COc1ccc2nc(SCC(=O)Nc3ccc(SC)cc3)[nH]c2c1` is reported as 2000 nM (FPR1; calcium mobilization, agonist; HL-60 transfected with FPR1).
With `O=C(Nc1ccc(F)cc1)C12CC1/C(=N\O)c1ccccc1O2` (centres unmarked) the EC50 was 2000 nM (GRM4; calcium mobilization, positive allosteric modulator; CHO hmGluR4/Gqi5; together with: glutamate EC20).
`O=C(Nc1ccc([N+](=O)[O-])cc1)N[C@@H](Cc1c[nH]c2ccccc12)C(=O)NCC1(c2ccccn2)CCCCC1` has an EC50 of 12100 ± 3400 nM (FPR2; β-arrestin recruitment, agonist; CHO-K1 expressing FPR2).
`COc1ccc(NC(=O)CN2CCCN(S(=O)(=O)c3ccoc3)CC2)c(OC)c1` has an EC50 of > 10000 nM (GRM4; calcium mobilization, positive allosteric modulator; CHO cells with Gqi5; together with: glutamate EC20).
The EC50 of `O=C(Nc1nccs1)C12CC1/C(=N\O)c1ccccc1O2` (centres unmarked) is reported as > 5000 nM (GRM4; calcium mobilization, positive allosteric modulator; CHO hmGluR4/Gqi5; together with: glutamate EC20).
`Oc1c(Cl)cccc1CNc1nc2ccccc2n1CC1CC1` has an EC50 of 97 ± 29 nM (ALDH1A1; enzyme activity, inhibitor, NADH absorbance 340 nm; pH 7.5, 25 °C, 200 µM NAD+, together with: 100 µM propionaldehyde).
The EC50 of `NCCCCNC(=O)[C@H](Cc1ccc(I)cc1)NC(=O)N1CCc2ccccc2C1` is reported as 17000 ± 4300 nM (Melanocortin receptor 4; reporter gene, agonist, β-galactosidase reporter; HEK293 stably expressing Melanocortin receptor 4).
`Cc1[nH]c2cc(Cl)cc(Cl)c2c1CCn1cc(CCCC#N)nn1` gave an EC50 of 743 nM (GLP1R; cAMP accumulation, positive allosteric modulator, HTRF; CHO-K1 expressing GLP1R; crude reaction product, together with: GLP-1(9-36) at EC20).
`COc1ccc(S(=O)(=O)n2nc(SCc3ccc(Cl)cc3)nc2N)cn1` has an EC50 of 2200 nM (Lysophospholipase-like protein 1; enzyme activity, activator, gel-based ABPP, FP-rhodamine; purified protein).
For `[2H]C([2H])(C)N(C(=O)C1CCN(S(=O)(=O)c2ccc3[nH]ncc3c2)CC1)[C@@H]1CCc2ccccc21`, the EC50 was 456 nM (Muscarinic acetylcholine receptor M5 (CHRM5, Homo sapiens, UniProt P08912); positive allosteric modulator, calcium mobilization; CHO cells expressing human M5; together with: acetylcholine EC20).
The EC50 of `CC1(C#Cc2cc(-c3nn(-c4nc(C(=O)O)cs4)c(CC4CC4)c3Cc3ccc(S(N)(=O)=O)c(F)c3)ccc2F)COC1` is reported as 140 nM (LDHA; thermal stabilisation, CETSA; HEK293; 3.5 min, 71 °C).
`COc1cccc(Cc2cc(C)nn(C(C(=O)Nc3ccc(Br)cc3)c3ccccc3)c2=O)c1` (racemic) has an EC50 of 1800 nM (FPR2; calcium mobilization, agonist; HL-60 transfected with FPR2).
`NCC(c1ccccc1)c1ccc(Oc2ccccc2)cc1` (centres unmarked) has an EC50 of > 10000 nM (Taar1; cAMP production, agonist; HEK293).
The EC50 of `Nc1nc(SCc2ccc(Cl)cc2)nn1S(=O)(=O)c1ccc(C(F)(F)F)nc1` is reported as 2400 nM (Lysophospholipase-like protein 1; enzyme activity, activator, gel-based ABPP, FP-rhodamine; purified protein).
`CCn1nc(C)cc1C(=O)Nc1nc2cc(C(N)=O)cc(OC)c2n1C/C=C/Cn1c(NC(=O)c2cc(C)nn2CC)nc2cc(C(N)=O)cc(OCCCN3CCN(CC(=O)NCCNC(=O)CCCCCN4C(=O)C=CC4=O)CC3)c21` has an EC50 of 871 ± 119 nM (Stimulator of interferon genes protein (Sting1, Mus musculus, UniProt Q3TBT3); IFN-β secretion, agonist, ELISA; mouse BMDCs; carrier-free cysteine-blocked click).
The EC50 of `NCCCCNC(=O)[C@H](Cc1ccc(Cl)cc1)NC(=O)N1CCc2ccccc2C1` is reported as > 100000 nM (Melanocyte-stimulating hormone receptor (Mc1r, Mus musculus, UniProt Q01727); reporter gene, agonist, β-galactosidase reporter; HEK293 stably expressing Mc1r).
`CC(C)(Cn1cc(CN[C@@H]2CCc3ccccc32)nn1)c1c[nH]c2ccccc12` has an EC50 of 1050 nM (GLP1R; cAMP accumulation, positive allosteric modulator, HTRF; CHO-K1 expressing GLP1R; crude reaction product, together with: GLP-1(9-36) at EC20).
With `Nc1nc(NCc2ccc(Cl)cc2)nn1S(=O)(=O)c1ccc2ncsc2c1` the EC50 was > 20000 nM (Lysophospholipase-like protein 1; enzyme activity, activator, gel-based ABPP, FP-rhodamine; purified protein).
`COc1ccc(C2(CNC(=O)[C@H](Cc3c[nH]c4ccccc34)NC(=O)Nc3ccc([N+](=O)[O-])cc3)CCCCC2)cc1` gave an EC50 of 14800 ± 4600 nM (FPR1; Ca2+ mobilization, agonist; HL-60 transfected with FPR1).
`CCCn1c(NCc2cccc(Cl)c2O)nc2ccccc21` has an EC50 of 190 ± 15 nM (ALDH1A1; enzyme activity, inhibitor, NADH absorbance 340 nm; pH 7.5, 25 °C, 200 µM NAD+, together with: 100 µM propionaldehyde).
`Cc1ccc(F)cc1S(=O)(=O)n1nc(SCc2ccccc2)nc1N` has an EC50 of > 20000 nM (Lysophospholipase-like protein 1 (LYPLAL1, Homo sapiens, UniProt Q5VWZ2); enzyme activity, activator, gel-based ABPP, FP-rhodamine; purified protein).
For `NCC(c1ccccc1)c1ccc(O)cc1` (centres unmarked), the EC50 was 78 ± 9 nM (Trace amine-associated receptor 1 (Rattus norvegicus, UniProt Q923Y9); cAMP production, agonist; HEK293).
For `Nc1nc(SCc2ccc(Cl)cc2)nn1S(=O)(=O)c1ccc(-c2ccccc2)nc1`, the EC50 was 190 nM (Lysophospholipase-like protein 1; enzyme activity, activator, gel-based ABPP, FP-rhodamine; purified protein).
`NCC(c1ccccc1)c1cccc(Oc2ccccc2)c1` (centres unmarked) gave an EC50 of > 10000 nM (Taar1; cAMP production, agonist; HEK293).
The EC50 of `Nc1nc(NCCc2ccc(Cl)cc2)nn1S(=O)(=O)C1CCCCC1` is reported as > 20000 nM (Lysophospholipase-like protein 1; enzyme activity, activator, gel-based ABPP, FP-rhodamine; purified protein).
The EC50 of `COc1ccc(NC(=O)CN2CCCN(S(=O)(=O)c3ccc(C)cc3C)CC2)c(OC)c1` is reported as 1300 ± 500 nM (GRM4; calcium mobilization, positive allosteric modulator; CHO cells with Gqi5; together with: glutamate EC20).
With `CC(C)(Cn1cc(-c2ccc(S(C)(=O)=O)cc2)nn1)c1c[nH]c2ccccc12` the EC50 was 1460 nM (GLP1R; cAMP accumulation, positive allosteric modulator, HTRF; CHO-K1 expressing GLP1R; crude reaction product, together with: GLP-1(9-36) at EC20).
`COc1ccc(NC(=O)CN2CCCN(S(=O)(=O)c3sc(C)nc3C)CC2)c(OC)c1` gave an EC50 of > 10000 nM (GRM4; calcium mobilization, positive allosteric modulator; CHO cells with Gqi5; together with: glutamate EC20).
`O=S(=O)(c1cccc(C(F)(F)F)c1)N1CCC(Cn2cnc3ccc(C(F)(F)F)cc32)CC1` has an EC50 of 3000 nM (KCNT1; thallium flux, activator; HEK293 expressing KCNT1).
`NCCCCNC(=O)[C@H](Cc1ccccc1)NC(=O)N1CCc2ccccc2C1` has an EC50 of 19000 ± 2000 nM (Melanocortin receptor 4; reporter gene, agonist, β-galactosidase reporter; HEK293 stably expressing Melanocortin receptor 4).
`C[N+]1=C(C=CC=CC=C2N(CCCCCC(=O)NCc3cn(CCOc4ccc(C(c5ccc(Cl)cc5)N5CCN(C(=O)OC(C(F)(F)F)C(F)(F)F)CC5)cc4)nn3)c3ccccc3C2(C)C)C(C)(C)c2ccccc21` (centres unmarked) has an EC50 of ~10 nM (Monoglyceride lipase (MGLL, Homo sapiens, UniProt Q99685); target engagement, gel-based ABPP; U-87 MG; 1 h, 37 °C).
For `CC(=O)NCc1cn(CCc2c(C)[nH]c3cc(Cl)cc(Cl)c23)nn1`, the EC50 was 789 ± 102 nM (GLP1R; cAMP accumulation, positive allosteric modulator, HTRF; CHO-K1 expressing GLP1R; purified compound, together with: GLP-1(9-36) at EC20).
The EC50 of `NCC(c1ccc(O)cc1)c1ccc(Oc2ccccc2)cc1` (centres unmarked) is reported as 11 ± 1 nM (Trace amine-associated receptor 1 (Rattus norvegicus, UniProt Q923Y9, M268T); cAMP, agonist; rat receptor mutant).
The EC50 of `CSc1cc(NC(=O)c2ccccn2)ccc1Cl` is reported as > 30000 nM (Metabotropic glutamate receptor 1 (GRM1, Homo sapiens, UniProt Q13255); agonist).

For quick reference, copied from above:
The EC50 of `Nc1nc(NCCc2ccc(Cl)cc2)nn1S(=O)(=O)C1CCCCC1` is reported as > 20000 nM (Lysophospholipase-like protein 1; enzyme activity, activator, gel-based ABPP, FP-rhodamine; purified protein).
`COc1ccc(NC(=O)CN2CCCN(S(=O)(=O)c3ccoc3)CC2)c(OC)c1` has an EC50 of > 10000 nM (GRM4; calcium mobilization, positive allosteric modulator; CHO cells with Gqi5; together with: glutamate EC20).
The EC50 of `COc1ccc(NC(=O)CN2CCCN(S(=O)(=O)Cc3ccc(Cl)cc3Cl)CC2)c(OC)c1` is reported as 2800 ± 10 nM (GRM4; calcium mobilization, positive allosteric modulator; CHO cells with Gqi5; together with: glutamate EC20).
`Oc1c(Cl)cccc1CNc1nc2ccccc2n1CC1CC1` has an EC50 of 97 ± 29 nM (ALDH1A1; enzyme activity, inhibitor, NADH absorbance 340 nm; pH 7.5, 25 °C, 200 µM NAD+, together with: 100 µM propionaldehyde).
The EC50 of `COc1ccc2nc(SCC(=O)Nc3ccc(SC)cc3)[nH]c2c1` is reported as 2000 nM (FPR1; calcium mobilization, agonist; HL-60 transfected with FPR1).
